Assay results gathered from unrelated publications.
Compare with care: the assays were run in different laboratories. ± gives the spread as reported.
rep main protease: Replicase polyprotein 1ab, main protease (rep, Severe acute respiratory syndrome coronavirus 2, UniProt P0DTD1)
Spike glycoprotein: Spike glycoprotein (Severe acute respiratory syndrome coronavirus 2, UniProt P0DTC2)
B1: cytochrome c peroxidase H52E; sequence looked up; chain TTPLVHVASVEKGRSYEDFQKVYNAIALKLREDDEYDNYIGYGPVLVRLAWETSGTWDKHDNTGGSYGGTYRFKKEFNDPSNAGLQNGFKFLEPIHKEFPWISSGDLFSLGGVTAVQEMQGPKIPWRCGRVDTPEDTTPDNGRLPDADKDADYVRTFFQRLNMNDREVVALMGAHALGKTHLKNSGYEGPWGAANNVFTNEFYLNLLNEDWKLEKNDANNEQWDSKSGYMMLPTDYSLIQDPKYLSIVKEYANDQDKFFKDFSKAFEKLLENGITFPKDAPSPFIFKTLEEQGL
B2: cytochrome c peroxidase H52Q; sequence looked up; chain TTPLVHVASVEKGRSYEDFQKVYNAIALKLREDDEYDNYIGYGPVLVRLAWQTSGTWDKHDNTGGSYGGTYRFKKEFNDPSNAGLQNGFKFLEPIHKEFPWISSGDLFSLGGVTAVQEMQGPKIPWRCGRVDTPEDTTPDNGRLPDADKDADYVRTFFQRLNMNDREVVALMGAHALGKTHLKNSGYEGPWGAANNVFTNEFYLNLLNEDWKLEKNDANNEQWDSKSGYMMLPTDYSLIQDPKYLSIVKEYANDQDKFFKDFSKAFEKLLENGITFPKDAPSPFIFKTLEEQGL
UniProt Q9EXR0, sequence (whole entry, looked up): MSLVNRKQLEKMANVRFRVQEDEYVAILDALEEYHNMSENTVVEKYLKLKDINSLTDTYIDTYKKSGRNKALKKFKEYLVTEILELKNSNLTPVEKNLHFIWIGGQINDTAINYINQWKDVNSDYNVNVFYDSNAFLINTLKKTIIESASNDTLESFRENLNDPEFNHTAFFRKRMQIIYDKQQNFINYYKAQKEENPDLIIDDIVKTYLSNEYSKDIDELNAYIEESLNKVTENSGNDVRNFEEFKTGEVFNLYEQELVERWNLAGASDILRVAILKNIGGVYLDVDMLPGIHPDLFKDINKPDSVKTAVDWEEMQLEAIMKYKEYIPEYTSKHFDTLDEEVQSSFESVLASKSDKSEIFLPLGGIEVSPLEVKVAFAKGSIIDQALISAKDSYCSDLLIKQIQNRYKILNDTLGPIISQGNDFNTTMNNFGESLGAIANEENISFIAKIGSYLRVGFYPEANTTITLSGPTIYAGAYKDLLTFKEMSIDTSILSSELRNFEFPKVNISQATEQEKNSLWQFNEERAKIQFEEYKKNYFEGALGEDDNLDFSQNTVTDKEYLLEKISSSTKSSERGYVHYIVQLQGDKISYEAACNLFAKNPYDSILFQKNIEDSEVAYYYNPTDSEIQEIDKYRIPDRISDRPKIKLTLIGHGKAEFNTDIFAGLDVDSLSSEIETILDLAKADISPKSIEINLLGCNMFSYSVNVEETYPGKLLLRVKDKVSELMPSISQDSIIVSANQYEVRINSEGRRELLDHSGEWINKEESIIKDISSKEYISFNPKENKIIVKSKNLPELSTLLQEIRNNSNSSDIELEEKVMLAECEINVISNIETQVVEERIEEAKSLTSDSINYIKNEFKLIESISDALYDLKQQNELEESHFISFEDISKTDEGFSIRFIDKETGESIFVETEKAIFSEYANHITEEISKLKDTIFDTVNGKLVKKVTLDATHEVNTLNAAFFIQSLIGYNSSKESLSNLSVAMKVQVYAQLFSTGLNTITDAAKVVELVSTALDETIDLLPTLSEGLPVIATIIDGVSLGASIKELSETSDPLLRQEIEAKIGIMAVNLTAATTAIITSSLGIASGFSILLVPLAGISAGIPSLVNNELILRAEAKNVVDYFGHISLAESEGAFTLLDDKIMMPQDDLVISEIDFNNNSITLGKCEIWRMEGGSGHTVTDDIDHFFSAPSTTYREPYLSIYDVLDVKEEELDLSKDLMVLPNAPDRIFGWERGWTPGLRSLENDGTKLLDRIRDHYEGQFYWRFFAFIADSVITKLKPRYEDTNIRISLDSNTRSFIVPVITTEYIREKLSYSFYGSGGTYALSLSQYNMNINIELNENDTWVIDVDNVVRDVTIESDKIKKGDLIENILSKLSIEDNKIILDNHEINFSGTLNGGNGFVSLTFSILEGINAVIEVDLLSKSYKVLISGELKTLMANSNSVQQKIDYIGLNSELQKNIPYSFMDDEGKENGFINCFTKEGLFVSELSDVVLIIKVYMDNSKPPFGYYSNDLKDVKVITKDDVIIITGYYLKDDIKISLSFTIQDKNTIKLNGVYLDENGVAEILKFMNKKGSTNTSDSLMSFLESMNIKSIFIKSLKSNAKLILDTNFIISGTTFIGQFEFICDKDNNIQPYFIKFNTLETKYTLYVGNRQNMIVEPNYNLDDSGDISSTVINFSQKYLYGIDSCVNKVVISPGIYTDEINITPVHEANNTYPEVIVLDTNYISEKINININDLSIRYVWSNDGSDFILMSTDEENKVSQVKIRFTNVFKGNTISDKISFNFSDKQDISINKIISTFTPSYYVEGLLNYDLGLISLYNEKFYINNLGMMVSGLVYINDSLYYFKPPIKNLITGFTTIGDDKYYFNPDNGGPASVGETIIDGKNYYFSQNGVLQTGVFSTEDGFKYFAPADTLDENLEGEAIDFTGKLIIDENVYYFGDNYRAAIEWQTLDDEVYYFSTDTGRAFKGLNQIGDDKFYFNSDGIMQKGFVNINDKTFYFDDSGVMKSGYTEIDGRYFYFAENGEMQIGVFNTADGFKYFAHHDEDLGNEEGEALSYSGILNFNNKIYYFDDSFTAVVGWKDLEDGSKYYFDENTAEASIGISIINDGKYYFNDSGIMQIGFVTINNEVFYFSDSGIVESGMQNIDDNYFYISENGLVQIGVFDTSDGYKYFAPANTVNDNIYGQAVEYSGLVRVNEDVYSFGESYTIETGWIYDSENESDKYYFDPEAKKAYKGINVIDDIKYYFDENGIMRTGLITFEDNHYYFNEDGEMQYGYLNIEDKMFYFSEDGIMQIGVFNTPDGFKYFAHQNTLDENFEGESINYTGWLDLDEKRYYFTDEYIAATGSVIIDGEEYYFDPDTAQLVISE
UniProt P33261, sequence (whole entry, looked up): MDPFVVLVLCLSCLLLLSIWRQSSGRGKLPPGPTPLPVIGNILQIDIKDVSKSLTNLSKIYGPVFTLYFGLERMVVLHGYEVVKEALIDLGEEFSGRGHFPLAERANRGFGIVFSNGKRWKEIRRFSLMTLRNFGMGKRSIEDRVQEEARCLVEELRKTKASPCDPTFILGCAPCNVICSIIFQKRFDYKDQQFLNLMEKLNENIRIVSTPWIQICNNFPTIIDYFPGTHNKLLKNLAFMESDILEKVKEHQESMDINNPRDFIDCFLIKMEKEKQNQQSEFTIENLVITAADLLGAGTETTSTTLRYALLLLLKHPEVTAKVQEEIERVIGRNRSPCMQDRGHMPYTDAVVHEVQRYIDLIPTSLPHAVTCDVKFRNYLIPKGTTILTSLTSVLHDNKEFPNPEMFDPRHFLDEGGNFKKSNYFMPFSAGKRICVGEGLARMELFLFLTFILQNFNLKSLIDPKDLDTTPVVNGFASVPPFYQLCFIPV
UniProt P0A8V2, sequence (whole entry, looked up): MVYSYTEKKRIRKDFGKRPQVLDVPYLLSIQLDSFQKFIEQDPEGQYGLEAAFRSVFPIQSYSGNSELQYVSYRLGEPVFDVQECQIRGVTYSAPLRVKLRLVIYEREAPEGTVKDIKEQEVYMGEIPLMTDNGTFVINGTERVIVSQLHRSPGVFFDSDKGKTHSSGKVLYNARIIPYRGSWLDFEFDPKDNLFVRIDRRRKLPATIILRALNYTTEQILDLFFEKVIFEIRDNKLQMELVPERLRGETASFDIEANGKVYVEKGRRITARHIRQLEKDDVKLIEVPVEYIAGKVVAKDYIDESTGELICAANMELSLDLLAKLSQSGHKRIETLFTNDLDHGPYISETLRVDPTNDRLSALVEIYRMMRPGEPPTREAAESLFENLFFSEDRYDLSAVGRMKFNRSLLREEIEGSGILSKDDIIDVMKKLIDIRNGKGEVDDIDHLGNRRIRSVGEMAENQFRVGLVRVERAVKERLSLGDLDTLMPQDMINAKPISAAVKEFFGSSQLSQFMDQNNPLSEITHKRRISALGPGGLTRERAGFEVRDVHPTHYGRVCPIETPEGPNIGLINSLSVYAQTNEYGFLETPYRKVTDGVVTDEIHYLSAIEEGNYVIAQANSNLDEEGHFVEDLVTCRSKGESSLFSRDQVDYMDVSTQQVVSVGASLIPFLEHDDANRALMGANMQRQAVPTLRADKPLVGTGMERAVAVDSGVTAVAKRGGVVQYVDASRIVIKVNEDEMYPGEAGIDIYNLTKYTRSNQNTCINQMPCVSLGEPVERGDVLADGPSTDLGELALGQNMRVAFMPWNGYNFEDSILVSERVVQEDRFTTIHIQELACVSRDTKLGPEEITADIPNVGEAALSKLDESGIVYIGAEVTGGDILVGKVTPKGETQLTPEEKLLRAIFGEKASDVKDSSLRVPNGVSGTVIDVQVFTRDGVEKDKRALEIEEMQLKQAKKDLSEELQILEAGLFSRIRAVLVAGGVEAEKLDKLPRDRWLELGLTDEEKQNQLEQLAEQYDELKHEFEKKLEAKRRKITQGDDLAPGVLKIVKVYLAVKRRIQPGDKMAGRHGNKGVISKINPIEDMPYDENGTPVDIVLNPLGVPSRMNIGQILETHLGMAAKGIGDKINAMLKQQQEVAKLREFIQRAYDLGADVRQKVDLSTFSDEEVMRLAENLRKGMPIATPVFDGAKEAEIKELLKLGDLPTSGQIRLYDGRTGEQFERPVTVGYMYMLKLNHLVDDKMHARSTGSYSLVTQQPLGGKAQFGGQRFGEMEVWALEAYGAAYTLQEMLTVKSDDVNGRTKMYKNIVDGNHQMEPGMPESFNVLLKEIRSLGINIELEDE
UniProt P42264, sequence (whole entry, looked up): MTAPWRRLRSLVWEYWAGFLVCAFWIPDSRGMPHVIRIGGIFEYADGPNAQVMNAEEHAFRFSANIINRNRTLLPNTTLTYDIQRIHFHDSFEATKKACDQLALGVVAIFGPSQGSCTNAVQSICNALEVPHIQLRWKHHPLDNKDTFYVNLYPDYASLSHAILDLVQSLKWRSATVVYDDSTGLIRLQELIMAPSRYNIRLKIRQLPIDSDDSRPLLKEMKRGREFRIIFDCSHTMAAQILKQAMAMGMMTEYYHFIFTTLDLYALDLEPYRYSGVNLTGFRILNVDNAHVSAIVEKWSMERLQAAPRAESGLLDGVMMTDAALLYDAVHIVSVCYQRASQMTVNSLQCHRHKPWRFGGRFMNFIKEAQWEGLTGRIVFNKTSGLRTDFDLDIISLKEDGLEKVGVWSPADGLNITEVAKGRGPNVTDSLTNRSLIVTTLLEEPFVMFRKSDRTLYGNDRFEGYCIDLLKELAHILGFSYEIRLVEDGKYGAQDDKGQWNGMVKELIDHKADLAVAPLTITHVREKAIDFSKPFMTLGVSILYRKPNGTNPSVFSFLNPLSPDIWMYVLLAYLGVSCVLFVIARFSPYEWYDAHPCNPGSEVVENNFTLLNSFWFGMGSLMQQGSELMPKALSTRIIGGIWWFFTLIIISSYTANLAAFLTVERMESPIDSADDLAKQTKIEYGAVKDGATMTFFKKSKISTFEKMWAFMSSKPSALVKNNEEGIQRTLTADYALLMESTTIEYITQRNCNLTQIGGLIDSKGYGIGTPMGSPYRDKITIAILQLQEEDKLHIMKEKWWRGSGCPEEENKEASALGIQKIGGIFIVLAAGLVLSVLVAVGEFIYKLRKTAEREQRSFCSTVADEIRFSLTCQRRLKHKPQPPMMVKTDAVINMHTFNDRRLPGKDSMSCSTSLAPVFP

Substance	tested on	assay	system	conditions	measurement	value
CC[C@H](C)[C@H](NC(=O)[C@H](CC(C)C)NC(=O)[C@H](CO)NC(=O)[C@H](Cc1c[nH]cn1)NC(=O)[C@@H](NC(=O)[C@H](CC(C)C)NC(=O)[C@H](CO)NC(=O)[C@@H](NC(=O)[C@H](Cc1ccc(O)cc1)NC(=O)[C@H](CC(N)=O)NC(=O)[C@H](CC(N)=O)NC(=O)[C@@H](NC(=O)[C@H](CCC(=O)O)NC(=O)[C@H](CCCNC(=N)N)NC(=O)[C@H](CC(=O)O)NC(=O)[C@H](Cc1c[nH]c2ccccc12)NC(=O)[C@H](CCC(=O)O)NC(=O)[C@H](CCSC)NC(=O)[C@H](Cc1c[nH]c2ccccc12)NC(C)=O)[C@@H](C)CC)[C@@H](C)O)[C@@H](C)CC)C(=O)N[C@@H](CCC(=O)O)C(=O)N[C@@H](CCC(=O)O)C(=O)N[C@@H](CO)C(=O)N[C@@H](CCC(N)=O)C(=O)N[C@@H](CC(N)=O)C(=O)N[C@@H](CCC(N)=O)C(=O)N[C@@H](CCC(N)=O)C(=O)N[C@@H](CCC(=O)O)C(=O)N[C@@H](CCCCN)C(=O)N[C@@H](CC(N)=O)C(=O)N[C@@H](CCC(=O)O)C(=O)N[C@@H](CCC(N)=O)C(=O)N[C@@H](CCC(=O)O)C(=O)N[C@@H](CC(C)C)C(=O)N[C@@H](CC(C)C)C(=O)NCC(=O)N[C@@H](CO)C(=O)NCC(=O)N[C@@H](CSCC(=O)O[C@H]1CC[C@@]2(C)C(=CC[C@H]3[C@@H]4CC[C@H]([C@H](C)CCCC(C)(C)O)[C@@]4(C)CC[C@@H]32)C1)C(N)=O		monolayer insertion, Langmuir surface pressure	POPC:cholesterol monolayer	25 °C, ratio 2:1, initial pressure 20.5 mN/m	Kd	0.248 ± 0.0548 µM
O=c1c(-c2ccc(O)cc2)coc2c([C@@H]3O[C@H](CO[C@@H]4OC[C@@H](O)[C@H](O)[C@H]4O)[C@@H](O)[C@H](O)[C@H]3O)c(O)ccc12	rep main protease	reporter gene (Gaussia luciferase), inhibitor		20 µM	inhibition	-0.894%
Cn1cnc(Cn2c(=O)[nH]/c(=N\c3cc4cn(C)nc4cc3Cl)n(Cc3cc(F)c(F)cc3F)c2=O)n1	Cytochrome P450 2C19 (CYP2C19, Homo sapiens, UniProt P33261)	inhibitor	human liver microsomes	30 min preincubation, preincubation with NADPH, together with: S-mephenytoin 60 µM	IC50	> 100 µM
CC1=C(/C=C/C(C)=C/C=C/C(C)=C/C=C/C=C(C)/C=C/C=C(C)/C=C/C2=C(C)CCCC2(C)C)C(C)(C)CCC1	Spike glycoprotein	binding, BLI			Kd	110 µM
Cn1cnc(Cn2c(=O)[nH]/c(=N\c3cc4cn(C)nc4cc3Cl)n(Cc3cc(F)c(F)cc3F)c2=O)n1			human, all renal function groups	oral, 375 mg, vessel puncture site haemorrhage TEAE, Mild severity	patients with adverse event	6.3%
CC[C@H](C)[C@H](NC(=O)[C@H](CC(C)C)NC(=O)[C@H](Cc1c[nH]c2ccccc12)NC(=O)[C@H](CCC(N)=O)NC(=O)[C@@H](NC(=O)[C@H](Cc1ccccc1)NC(=O)[C@H](C)NC(=O)[C@H](CCCCNC(=O)COCCOCCNC(=O)COCCOCCNC(=O)CC[C@H](NC(=O)CCCCCCCCCCCCCCCCCCC(=O)O)C(=O)O)NC(=O)[C@H](CCC(N)=O)NC(=O)[C@H](C)NC(=O)[C@@H](NC(=O)[C@H](CCCCN)NC(=O)[C@H](CC(=O)O)NC(=O)[C@H](CC(C)C)NC(=O)C(C)(C)NC(=O)[C@@H](NC(=O)[C@H](CO)NC(=O)[C@H](Cc1ccc(O)cc1)NC(=O)[C@H](CC(=O)O)NC(=O)[C@H](CO)NC(=O)[C@@H](NC(=O)[C@H](Cc1ccccc1)NC(=O)[C@@H](NC(=O)CNC(=O)[C@H](CCC(=O)O)NC(=O)C(C)(C)NC(=O)[C@@H](N)Cc1ccc(O)cc1)[C@@H](C)O)[C@@H](C)O)[C@@H](C)CC)[C@@H](C)CC)C(C)C)C(=O)N[C@@H](C)C(=O)NCC(=O)NCC(=O)N1CCC[C@H]1C(=O)N[C@@H](CO)C(=O)N[C@@H](CO)C(=O)NCC(=O)N[C@@H](C)C(=O)N1CCC[C@H]1C(=O)N1CCC[C@H]1C(=O)N1CCC[C@H]1C(=O)N[C@@H](CO)C(N)=O			healthy subjects	all MAD doses	subjects feeling hot	28.6%
B1 (cytochrome c peroxidase H52E)	cyanide binding	spectrophotometric titration		pH 6.0, 25 °C, together with: cyanide	Kd	100 µM
C=C[C@@](C)(/C=C/c1ccc(O)cc1)CCC=C(C)C	Spike glycoprotein	binding			Kd	40.7 µM
CC(C)C[C@H](NC(=O)[C@@H](NC(=O)[C@@H](N)Cc1c[nH]cn1)[C@@H](C)O)C(=O)N[C@@H](CCC(=O)O)C(=O)N[C@@H](Cc1c[nH]c2ccccc12)C(=O)N[C@@H](CCCNC(=N)N)C(=O)N[C@@H](CCCNC(=N)N)C(=O)N[C@@H](Cc1c[nH]c2ccccc12)C(=O)O	Toxin B, glucosyltransferase domain (tcdB, Clostridioides difficile, UniProt Q9EXR0)				Ki	163 µM
CNC(=O)[C@@H](NC(=O)[C@H](CC(C)C)[C@H](O)C(=O)NO)C(C)(C)C	Daboia russelii venom proteases	proteolytic activity, inhibitor		venom from MP, together with: azocasein substrate	IC50	1.5 µM
Nc1ncnc2c([C@@H]3N[C@H](CO)[C@@H](O)[C@H]3O)c[nH]c12	Marburg virus	viral replication	HeLa, Musoke	12.5 µM	inhibition	90%
C[C@@H]1O[C@@H](O[C@H]2C(=O)c3c(O)cc(O)cc3O[C@@H]2c2ccc(O)c(O)c2)[C@H](O)[C@H](O)[C@H]1O	Spike glycoprotein	binding, BLI			Kd	32.5 µM
B2 (cytochrome c peroxidase H52Q)	cyanide binding	spectrophotometric titration		pH 6.0, 25 °C, together with: cyanide	Kd	6100 µM
Nc1ncnc2c1c(I)cn2[C@@H]1O[C@H](CO)[C@@H](O)[C@H]1O	HEK293T	reporter gene, firefly luciferase		24 h, together with: Marburg VP24	IC50	0.44 µM
S=C(Nc1ccccn1)c1ccccn1	rep main protease	viral replication, mKate2 reporter	SARS-CoV-2	20 µM	inhibition	0.451%
OC[C@H]1O[C@@H](Oc2c(O)cc(O)cc2/C=C/c2ccc(O)cc2)[C@H](O)[C@@H](O)[C@@H]1O	Spike glycoprotein	binding			Kd	66.2 µM
N[C@@H](C[C@]1(C(=O)O)C[C@H]2OC[C@@H](O)[C@@H](O)[C@H]2O1)C(=O)O	Glutamate receptor ionotropic, kainate 3 (Rattus norvegicus, UniProt P42264)	[3H]kainate displacement	HEK-293T/17 membranes		Ki	3 µM
CSCC[C@H](NC(=O)[C@@H](N)CCC(=O)O)C(=O)N[C@@H](Cc1c[nH]cn1)C(=O)N[C@@H](CCC(N)=O)C(=O)N[C@@H](Cc1c[nH]c2ccccc12)C(=O)N[C@@H](CCCNC(=N)N)C(=O)N[C@@H](CCCNC(=N)N)C(=O)N[C@@H](Cc1c[nH]c2ccccc12)C(=O)O	Toxin B, glucosyltransferase domain (Clostridioides difficile, UniProt A0A9R0CDJ3)	glucosyltransferase activity, inhibitor, UDP-Glo glucosyltransferase luminescence		together with: Rac1 and UDP-glucose	Ki	919 µM
CC(=O)O[C@@H]1[C@H](N)[C@@H](OP(=O)(O)O)[C@@]2(C(=O)O)CS[C@@](O)(C(N)=O)[C@@H]1O2	DNA-directed RNA polymerase subunit beta' / DNA-directed RNA polymerase subunit beta (rpoC/rpoB, Escherichia coli, UniProt P0A8T7+P0A8V2)	binding to elongation complex, 6-MI fluorescence titration	wild-type RNAP	2′-deoxy RNA 3′-end Guanine	Kd	3.6 ± 1 µM

Repeated from above:
Substance	tested on	assay	system	conditions	measurement	value
CSCC[C@H](NC(=O)[C@@H](N)CCC(=O)O)C(=O)N[C@@H](Cc1c[nH]cn1)C(=O)N[C@@H](CCC(N)=O)C(=O)N[C@@H](Cc1c[nH]c2ccccc12)C(=O)N[C@@H](CCCNC(=N)N)C(=O)N[C@@H](CCCNC(=N)N)C(=O)N[C@@H](Cc1c[nH]c2ccccc12)C(=O)O	Toxin B, glucosyltransferase domain (Clostridioides difficile, UniProt A0A9R0CDJ3)	glucosyltransferase activity, inhibitor, UDP-Glo glucosyltransferase luminescence		together with: Rac1 and UDP-glucose	Ki	919 µM
